Assay results collected from several papers.
Protocols differ between the studies behind these lines. ± marks the error that the study gave.

| Structure (SMILES) | cell line | assay | test system | setting | how to read | quantity | result |
| --- | --- | --- | --- | --- | --- | --- | --- |
| CC1CCC2C(C)C(OC(=O)CCC(=O)N(CCCc3cn(-c4ccc([N+](=O)[O-])cc4)nn3)CCNc3ccnc4cc(Cl)ccc34)OC3OC4(C)CCC1C32OO4 (stereo not drawn) | RPMI-8226 | cell growth or viability, resazurin |  | 10 µM, 48 h |  | inhibition | 42.7% |
| O=C(CN1C(=O)S/C(=C\c2ccccc2Br)C1=O)Nc1ccc(C(=O)Nc2ccc(F)cc2)cc1 | HT-29 | MTT |  |  | relative to: IC50 Vero over IC50 HT-29 | selectivity index | 22.1 |
| CC1CCC2C(C)C(OC(=O)CCC(=O)N(CCCc3cn(-c4ccc(C#N)cc4)nn3)CCNc3ccnc4cc(Cl)ccc34)OC3OC4(C)CCC1C32OO4 (stereo not drawn) | CCRF-CEM | cell growth or viability, resazurin |  | 10 µM, 48 h |  | inhibition | 34% |
| O=C(O)c1ccc([PH]([Au][Cl])(c2ccccc2)c2ccccc2)cc1 | HUVEC | tube formation |  | IC10, 16 h |  | tube node disruption | 23% |
| CC[C@H](C)[C@H](NC(C)=O)C(=O)N[C@@H](CC(N)=O)C(=O)N[C@@H](Cc1c[nH]c2ccccc12)C(=O)N[C@@H](Cc1c[nH]cn1)C(=O)N[C@@H](C)C(=O)N[C@H](C(=O)N[C@@H](C)C(=O)N[C@@H](Cc1c[nH]cn1)C(=O)N[C@@H](CCSC)C(=O)N[C@@H](C)C(=O)N[C@@H](CCCCN)C(=O)N[C@@H](CCCCN)C(=O)N[C@@H](CC(C)C)C(=O)N[C@@H](CC(C)C)C(N)=O)[C@@H](C)CC | human erythrocytes | hemolysis |  | no metal added |  | Hill coefficient | 1.9 ± 0.2 |
| CNC(=O)c1cc(Oc2ccc(NC(=O)c3cc(-c4ccc(OC(=O)CCC(=O)OC5OC6OC7(C)CCC8C(C)CCC(C5C)C68OO7)cc4)ccn3)cc2)ccn1 (stereo not drawn) | Huh-7 and LO2 | cell viability, MTT |  | 72 h | relative to: IC50 LO2 over IC50 Huh-7 | selectivity ratio | 3.1 |
| Cc1cc(O)cc(-c2nc(Nc3cc(C(F)(F)F)cc(C(F)(F)F)c3)ncc2-c2ccnc(Cl)c2)c1 | HT-29 | autophagy, Cyto-ID |  | 10 µM, 48 h |  | inhibition | 15% |
| CSCC[C@H](NC(=O)[C@H](CC(C)C)NC(=O)CNC(=O)[C@H](Cc1ccccc1)NC(=O)[C@H](Cc1ccccc1)NC(=O)[C@H](CCC(N)=O)NC(=O)[C@H](CCC(N)=O)NC(=O)[C@@H]1CCCN1C(=O)[C@H](CCCCN)NC(=O)[C@@H]1CCCN1C(=O)[C@@H](N)CCCNC(=N)N)C(N)=O | rat mast cells | patch-clamp capacitance |  | concentration not given, 15 to 20 min |  | degranulated cells | 66% |
| C#CCCCNCCNc1ccnc2cc(Cl)ccc12 | MOLT-4 | cell growth or viability, resazurin |  | 10 µM, 48 h |  | inhibition | 0% |
| Cc1cc2c(C(=O)Cc3ccccc3)c(O)c(O)cc2c(O)c1-c1c(C)cc2c(C(=O)Cc3ccccc3)c(O)c(O)cc2c1O | MEF wild type | annexin V/PI staining |  | 10 µM |  | cell death | 80% |
| O=C(O)CCC(NP(=O)(O)OCCC[C@@H](NC(=O)CCC(NC(=O)CCCCCNC(=O)c1ccc([18F])cc1)C(=O)O)C(=O)O)C(=O)O (stereo partly drawn) | CWR22Rv1 |  |  | 2 h |  | surface-bound fraction | 15.8 ± 2.3% |
| F[P-](F)(F)(F)(F)F.OCP(CO)CO.OCP(CO)CO.OCP(CO)CO.OCP(CO)CO.[Cu+] | SW480 | MTT |  | 72 h | relative to: oxaliplatin | sensitivity ratio | 3 fold |
| CC(=O)Oc1ccc(/C=C/C(=O)Nc2nc(=O)n([C@@H]3O[C@H](C)[C@@H](OC(C)=O)[C@H]3OC(C)=O)cc2F)cc1OC(C)=O | BXPC-3 | cell viability, MTT |  |  | relative to: NHDF fibroblasts over BXPC-3 | selectivity index | 3.83 |
| CC[C@H](C)[C@H](NC(=O)[C@H](CC(N)=O)NC(=O)[C@H](CCCCN)NC(=O)[C@H](Cc1ccccc1)NC(=O)[C@H](Cc1ccccc1)NC(=O)[C@H](Cc1c[nH]cn1)NC(=O)[C@@H](NC(=O)[C@@H](NC(=O)[C@@H]1CCCN1C(=O)[C@@H](N)CC(N)=O)C(C)C)C(C)C)C(=O)N[C@H](C(=O)N[C@H](C(=O)N[C@@H](C)C(=O)O)[C@@H](C)O)C(C)C | T cell clone Ob.3D1 | T cell proliferation, agonist, [3H]thymidine incorporation |  | 72 h, peptide-pulsed APC, together with: EBV-transformed B cells DR2/DQ6 as APC |  | EC50 | 3.8 µM |
| CCCCCCCCCCCCCC(=O)NCC(=O)N[C@@H](CCCNC(=N)N)C(=O)N[C@@H](Cc1c[nH]c2ccccc12)C(=O)N[C@@H](CCCCN)C(=O)N[C@H](C(=O)N[C@@H](Cc1ccccc1)C(=O)N[C@@H](CCCCN)C(=O)N[C@@H](CCCCN)C(=O)N[C@H](C(=O)N[C@@H](CCC(=O)O)C(=O)N[C@@H](CCCCN)C(=O)N[C@H](C(=O)NCC(=O)N[C@@H](CCC(N)=O)C(=O)N[C@@H](CC(N)=O)C(=O)N[C@H](C(=O)N[C@@H](CCCNC(=N)N)C(=O)N[C@@H](CC(=O)O)C(=O)NCC(=O)N[C@H](C(=O)N[C@H](C(=O)N[C@@H](CCCCN)C(=O)N[C@@H](C)C(=O)NCC(=O)N1CCC[C@H]1C(=O)N[C@@H](C)C(=O)N[C@H](C(=O)N[C@@H](C)C(=O)N[C@H](C(=O)N[C@H](C(=O)NCC(=O)N[C@@H](CCC(N)=O)C(=O)N[C@@H](C)C(=O)N[C@@H](C)C(=O)N[C@H](C(=O)N[C@H](C(N)=O)[C@@H](C)CC)[C@@H](C)O)C(C)C)C(C)C)C(C)C)C(C)C)[C@@H](C)CC)[C@@H](C)CC)C(C)C)[C@@H](C)CC)[C@@H](C)CC | K562/MDR | Western blot, item: procaspase 9 |  | 2 µM, 16 h |  | procaspase activation | ~55% |
| CC(=O)N[C@@H](CCCNC(=N)N)C(=O)N[C@@H](CCCNC(=N)N)C(=O)N[C@@H](CCCNC(=N)N)C(=O)N[C@@H](CCCNC(=N)N)C(=O)N[C@@H](CCCNC(=N)N)C(=O)N[C@@H](CCCNC(=N)N)C(=O)N[C@@H](CCCNC(=N)N)C(=O)N[C@@H](CCCNC(=N)N)C(=O)N[C@@H](CCCNC(=N)N)C(=O)N[C@@H](CCCNC(=N)N)C(=O)NCC(=O)N[C@@H](COP(=O)(O)O)C(=O)N1CCC[C@H]1C(=O)N[C@H](C(=O)N[C@@H](Cc1ccccc1)C(=O)O)[C@@H](C)O | HeLa | co-immunoprecipitation | cytoplasmic fraction | up to 100 µM, together with: with or without irradiation 10 Gy |  | BRCA1-Abraxas interaction | no effect |
| CC/C=C\C/C=C\C/C=C\C/C=C\C/C=C\C/C=C\CCC(=O)Nc1ccn(C2OC(CO)C(O)C2(F)F)c(=O)n1 (stereo not drawn) | RPMI-8226 | NCI60 screen |  |  |  | CC50 | > 100 µM |

| Structure (SMILES) | cell line | assay | test system | setting | how to read | quantity | result |
| --- | --- | --- | --- | --- | --- | --- | --- |
| CC(C)CC(O)(CC(C)C)c1cn(C(=O)N2CCCC2)nn1 | mouse T-cells | N-terminal labeled proteins, N-terminal enrichment proteomics, item: LARP4 |  | 1 nM, 6 h | relative to: DMSO | SILAC ratio | 4.42 ± 0.23 |
| C=CC(=O)Nc1cc(-c2nn(C3CCC(N4CCN(C(C)=O)CC4)CC3)c3ncnc(N)c23)ccc1Oc1ccccc1 (stereo not drawn) | PC9/GR4 | cell growth or viability, ATP luminescence |  | 72 h |  | EC50 | ≥ 10 µM |
| CC12OOC(C)(OO1)C2CCC(=O)NCCCNc1ccnc2cc(Cl)ccc12 (stereo not drawn) | RPMI-8226 | cell growth or viability, resazurin |  | 10 µM, 48 h |  | inhibition | 16.3% |
| N=C(N)NCCC[C@H](NC(=O)CNC(=O)[C@@H](N)Cc1c[nH]c2ccccc12)C(=O)N1CCC[C@H]1C(=O)O | HaCaT | CCK-8 |  | 100 µg/mL, 72 h, 0.4 % serum |  | viability | 126 ± 3.39% |
| CNC(=O)c1cc(Oc2ccc(NC(=O)c3cc(-c4ccccc4OC(=O)CCC(=O)OC4OC5OC6(C)CCC7C(C)CCC(C4C)C57OO6)ccn3)cc2)ccn1 (stereo not drawn) | Huh-7 and LO2 | cell viability, MTT |  | 72 h | relative to: IC50 LO2 over IC50 Huh-7 | selectivity ratio | 9.8 |
| CCN1CC2(COC)CCC(OC)C34C5CC6C(OC)C(O)C(O)(C(CC23)C14)C5C6OC(=O)c1ccccc1 (stereo not drawn) | HBE | cell growth or viability, MTT |  |  |  | IC50 | 31 µM |
| CCN(CC)CCOc1ccc(-c2nnn(Cc3ccc(OC)cc3)c2N)cc1 | HEI-193 | western blot, item: SOX2 |  | concentration not given, 7 days |  | protein level | decreased |
| CCCN1CCNC1=[S+][Ag-3]([O][N+](=O)[O-])([P+](c1ccccc1)(c1ccccc1)c1ccccc1)[P+](c1ccccc1)(c1ccccc1)c1ccccc1 | MG-63 osteosarcoma | MTT |  | 6.25 µM |  | cell killing | ≤ 40% |
| CC[C@H](C)[C@H](NC(=O)[C@H](Cc1ccccc1)NC(=O)[C@H](CCC(=O)O)NC(=O)[C@H](CCCCN)NC(=O)[C@H](C)NC(=O)[C@H](C)NC(=O)[C@H](CC(N)=O)NC(=O)CNC(=O)[C@H](CCC(=O)O)NC(=O)[C@H](CC(C)C)NC(=O)[C@H](Cc1ccc(O)cc1)NC(=O)[C@H](CO)NC(=O)[C@H](CO)NC(=O)[C@@H](NC(=O)[C@H](CC(=O)O)NC(=O)[C@H](CO)NC(=O)[C@@H](NC(=O)[C@H](Cc1ccccc1)NC(=O)[C@@H](NC(=O)CNC(=O)[C@H](CCC(=O)O)NC(=O)[C@H](C)NC(=O)[C@@H](N)Cc1c[nH]cn1)[C@@H](C)O)[C@@H](C)O)C(C)C)C(=O)N[C@@H](CCC(N)=O)C(=O)N[C@@H](Cc1c[nH]c2ccccc12)C(=O)N[C@@H](CC(C)C)C(=O)N[C@H](C(=O)N[C@@H](CCCCN)C(=O)NCC(=O)N[C@@H](CCCNC(=N)N)C(N)=O)C(C)C | RIN-m5F rat β-cells | insulin secretion |  |  | relative to: EC50 of analogue over EC50 of GLP-1(7-36)-amide | relative potency | 0.42 |
| CC[C@H](C)[C@H]1C(=O)O[C@H](C(C)C)C(=O)N(C)[C@@H]([C@@H](C)CC)C(=O)O[C@H](C(C)C)C(=O)N(C)[C@@H]([C@@H](C)CC)C(=O)O[C@H](C(C)C)C(=O)N1C | E0771 | RNA-seq |  | concentration not given | relative to: 17-AAG | shared regulated genes | 34 genes |
| CC[C@H](C)[C@@H]1NC(=O)CNC(=O)[C@H](CCSC)NC(=O)[C@H](C(C)C)NC(=O)[C@H]([C@@H](C)O)NC(=O)[C@@H]2CSSC[C@@H]3NC(=O)[C@H](Cc4c[nH]cn4)NC(=O)[C@@H](NC(=O)[C@@H](NC(=O)[C@H](Cc4ccccc4)NC(=O)[C@H](C)N)[C@@H](C)O)CSSC[C@@H](C(=O)N[C@@H](CC(C)C)C(=O)O)NC(=O)[C@H](CSSC[C@H](NC(=O)[C@H](CO)NC(=O)[C@H](CCCNC(=N)N)NC(=O)[C@H](CCCNC(=N)N)NC3=O)C(=O)N[C@@H](Cc3ccc(O)cc3)C(=O)N[C@@H](CO)C(=O)N[C@@H]([C@@H](C)O)C(=O)N[C@@H](CCC(=O)O)C(=O)N[C@@H](Cc3ccc(O)cc3)C(=O)N[C@@H](CO)C(=O)N[C@@H](Cc3ccc(O)cc3)C(=O)NCC(=O)N[C@@H]([C@@H](C)O)C(=O)N2)NC(=O)[C@H](Cc2ccccc2)NC(=O)[C@H](CCCNC(=N)N)NC(=O)[C@H](Cc2c[nH]cn2)NC(=O)[C@H](CC(N)=O)NC1=O | RIN-m5F | MTT |  | 20 µM, 24 h, together with: hIAPP 20 µM |  | viability | 85% |
| CCCC[C@H](O)C[C@@H](C)C[C@H](NC(=O)[C@@H]1C[C@H](C)CN1C(=O)/C=C/[C@@H](C)CC)C(=O)N[C@H](C(=O)NC(C)(C)C(=O)N[C@@H](CC(C)C)C(=O)N[C@@H](CC(C)C)C(=O)NC(C)(C)C(=O)NC(C)(C)C(=O)NCCC(=O)N[C@@H](C)CNC)[C@H](O)C(C)C | MDA-MB-453 | cell growth or viability, SRB |  | 48 h |  | GI50 | 0.0033 µM |
| O=C(Nc1ccc(C(F)(F)F)cc1Cl)c1cc(Cl)ccc1O | C4-2B MDVR cells | ELISA |  | 0.5 and 1.0 µM |  | cell death | increased |
| CC[C@H](C)[C@H](NC(C)=O)C(=O)N[C@@H](CC(N)=O)C(=O)N[C@@H](Cc1c[nH]c2ccccc12)C(=O)N[C@@H](CCC(=O)O)C(=O)NCC(=O)N[C@H](C(=O)N[C@@H](C)C(=O)N[C@@H](Cc1c[nH]cn1)C(=O)N[C@@H](CCSC)C(=O)N[C@@H](C)C(=O)N[C@@H](CCCCN)C(=O)N[C@@H](CCCCN)C(=O)N[C@@H](CC(C)C)C(=O)N[C@@H](CC(C)C)C(N)=O)[C@@H](C)CC | human erythrocytes | hemolysis |  | no metal added |  | Hill coefficient | 2.2 ± 0.6 |
| COCCOCCOCCOc1ccc(-n2cc(CCCN(CCNc3ccnc4cc(Cl)ccc34)C(=O)CCC(=O)OC3OC4OC5(C)CCC6C(C)CCC(C3C)C46OO5)nn2)cc1 (stereo not drawn) | RPMI-8226 | cell growth or viability, resazurin |  | 10 µM, 48 h |  | inhibition | 23.9% |
| CC1OC2OC3C4=C(OC3(C)C12O)C(=O)c1c(O)cccc1C4=O (stereo not drawn) | A549 and HFF | MTT |  |  | relative to: CC50 HFF over EC50 A549 | selectivity index | 2 |
